Experimental data from different studies.
Numbered parts are unrelated; each lists some results of a single study.

Study 1
Target: Probable WRKY transcription factor 50, DNA-binding domain (WRKY50, Arabidopsis thaliana, UniProt Q8VWQ5, residues 99-173)
Technique: DNA-protein interaction ELISA
Form: double-stranded DNA, one strand shown
Matrix: in vitro, bacterial lysate
Tested at: not given
Notes: whole dsDNA probe, crude lysate protein
Baseline: highest signal in screen
Reading: higher = stronger binding
Target sequence (chain): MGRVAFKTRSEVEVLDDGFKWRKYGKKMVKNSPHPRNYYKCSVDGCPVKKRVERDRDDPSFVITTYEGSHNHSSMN
| Strand | relative absorbance |
| --- | --- |
| AAAAAAGGCGTCTGACTGTAACTCGTAAAA | 45.3 % of maximum |
| AAAAAAAACAAAACCTCCTAATAGCGAAAA | 22.7 % of maximum |
| AAAAAAAGTTTGACCTTGGCGTTCGTAAAA | 100 % of maximum |
| AAAAAACAACTTGGAGGATTTACAGCAAAA | 16 % of maximum |
| AAAAAATCCTTTTCTCTTTCTGTTTCAAAA | 47.7 % of maximum |
| AAAAAACCCGCCGTCGTGATTATCACAAAA | 12.8 % of maximum |

Study 2
Target: Histone acetyltransferase KAT6A, both winged helices, GST fusion (KAT6A, Homo sapiens, UniProt Q92794, residues 1-181)
Technique: protein binding microarray
Form: double-stranded DNA, one strand shown
Matrix: in vitro
Tested at: not given
Notes: 8-mer, flanks averaged, mean of 2 arrays, mostly near background
Baseline: not given
Reading: higher = stronger binding
Construct (chain): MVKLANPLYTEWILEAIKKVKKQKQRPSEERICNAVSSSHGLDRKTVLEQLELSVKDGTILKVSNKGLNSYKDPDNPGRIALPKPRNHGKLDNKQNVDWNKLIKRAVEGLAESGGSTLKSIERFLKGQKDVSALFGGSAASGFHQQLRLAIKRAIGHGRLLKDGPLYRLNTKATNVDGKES
| Strand | E-score |
| --- | --- |
| ATCGATTC | -0.108 |
| ACTGAGGG | -0.216 |
| AACACGTG | 0.0614 |
| ATGTTTAC | -0.0478 |
| GGATTGCC | 0.0355 |
| CCGAGCTA | 0.157 |

Study 3
Target: Transcription factor SOX-2, HMG box (SOX2, Homo sapiens, UniProt P48431, residues 19-118)
Sequence of UniProt P48431 (19-118, looked up): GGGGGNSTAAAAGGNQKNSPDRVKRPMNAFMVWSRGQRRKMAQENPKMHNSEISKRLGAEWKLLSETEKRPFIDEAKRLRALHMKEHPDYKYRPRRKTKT
Technique: protein-binding microarray
Form: double-stranded DNA, one strand shown
Matrix: in vitro
Tested at: not given
Notes: k-mer, scored over probes, only values ≥0.25
Reading: higher = stronger binding
| Strand | E-score |
| --- | --- |
| CAATGAG | 0.358 |
| ATATGTG | 0.333 |
| CCCATTC | 0.274 |
| CTGACAA | 0.283 |
| ACCATTG | 0.323 |
| AATTTGA | 0.36 |
| ATAATGC | 0.309 |
| ATAAAAA | 0.345 |

Other studies, line by line
| Molecule | target | test | system | setting | scale | quantity | result |
| --- | --- | --- | --- | --- | --- | --- | --- |
| PhoQ, residues 284 288 289 292 302 303 SLSLLA | PhoP, residues 12 14 15 18 19 LHATL (Escherichia coli, UniProt P23836) | Sort-seq, refers to: YFP reporter | E. coli | PhoQ-PhoP variant library, with: 10 µM Mg2+ | baseline: high Mg2+ state, higher = stronger signaling | fold induction | 0.936 |
